Results gathered from unrelated publications.
Protocols differ between the studies behind these lines. ± gives the spread as reported.
MAPK8: Mitogen-activated protein kinase 8 (MAPK8, Homo sapiens, UniProt P45983)

Amino acid sequences for entries named in this document (tags omitted). Residues count along the entry.
UniProt P45983, whole entry: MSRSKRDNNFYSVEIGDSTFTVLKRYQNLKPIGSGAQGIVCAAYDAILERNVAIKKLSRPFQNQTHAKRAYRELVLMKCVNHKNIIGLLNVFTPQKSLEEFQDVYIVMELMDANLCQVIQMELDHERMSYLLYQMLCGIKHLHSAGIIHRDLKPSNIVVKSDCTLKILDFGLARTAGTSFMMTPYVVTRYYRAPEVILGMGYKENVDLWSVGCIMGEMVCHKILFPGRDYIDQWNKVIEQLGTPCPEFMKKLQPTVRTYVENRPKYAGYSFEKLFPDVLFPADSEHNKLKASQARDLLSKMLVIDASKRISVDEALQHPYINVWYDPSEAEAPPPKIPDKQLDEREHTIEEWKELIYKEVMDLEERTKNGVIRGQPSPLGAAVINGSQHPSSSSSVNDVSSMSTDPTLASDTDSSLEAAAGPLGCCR
UniProt Q00987, whole entry, looked up: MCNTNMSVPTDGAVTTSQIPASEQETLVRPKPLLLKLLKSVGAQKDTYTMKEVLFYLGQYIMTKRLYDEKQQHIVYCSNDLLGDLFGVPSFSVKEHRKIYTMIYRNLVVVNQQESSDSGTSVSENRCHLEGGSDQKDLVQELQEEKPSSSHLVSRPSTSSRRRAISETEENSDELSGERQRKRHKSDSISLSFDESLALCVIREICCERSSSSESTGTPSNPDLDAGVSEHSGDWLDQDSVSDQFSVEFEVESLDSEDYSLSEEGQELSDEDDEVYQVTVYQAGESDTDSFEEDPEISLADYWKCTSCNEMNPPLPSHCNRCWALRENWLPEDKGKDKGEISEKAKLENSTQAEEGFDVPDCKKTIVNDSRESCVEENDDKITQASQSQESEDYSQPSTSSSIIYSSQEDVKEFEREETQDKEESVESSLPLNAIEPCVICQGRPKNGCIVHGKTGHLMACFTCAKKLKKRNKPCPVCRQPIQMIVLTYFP
UniProt Q9EP80, whole entry: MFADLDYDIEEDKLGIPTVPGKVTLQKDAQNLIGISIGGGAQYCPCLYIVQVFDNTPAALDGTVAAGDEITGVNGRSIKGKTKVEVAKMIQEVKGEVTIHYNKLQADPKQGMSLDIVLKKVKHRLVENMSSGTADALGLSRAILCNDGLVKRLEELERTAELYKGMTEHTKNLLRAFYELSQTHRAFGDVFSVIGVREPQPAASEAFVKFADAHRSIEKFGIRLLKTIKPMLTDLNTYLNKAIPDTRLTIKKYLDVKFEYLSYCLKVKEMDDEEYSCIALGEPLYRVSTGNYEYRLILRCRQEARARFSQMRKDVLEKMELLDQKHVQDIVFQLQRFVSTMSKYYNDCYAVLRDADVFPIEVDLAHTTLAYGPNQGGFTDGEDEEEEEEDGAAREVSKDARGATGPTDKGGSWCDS
UniProt Q9R0C9, whole entry: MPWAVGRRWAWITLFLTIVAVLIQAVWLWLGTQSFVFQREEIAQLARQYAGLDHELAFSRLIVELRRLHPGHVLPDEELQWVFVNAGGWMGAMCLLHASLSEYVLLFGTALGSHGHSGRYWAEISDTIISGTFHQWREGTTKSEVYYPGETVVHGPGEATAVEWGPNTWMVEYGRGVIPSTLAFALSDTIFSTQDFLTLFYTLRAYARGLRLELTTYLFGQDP
UniProt Q9Y5Z0, 63-460 E331A limits assumed: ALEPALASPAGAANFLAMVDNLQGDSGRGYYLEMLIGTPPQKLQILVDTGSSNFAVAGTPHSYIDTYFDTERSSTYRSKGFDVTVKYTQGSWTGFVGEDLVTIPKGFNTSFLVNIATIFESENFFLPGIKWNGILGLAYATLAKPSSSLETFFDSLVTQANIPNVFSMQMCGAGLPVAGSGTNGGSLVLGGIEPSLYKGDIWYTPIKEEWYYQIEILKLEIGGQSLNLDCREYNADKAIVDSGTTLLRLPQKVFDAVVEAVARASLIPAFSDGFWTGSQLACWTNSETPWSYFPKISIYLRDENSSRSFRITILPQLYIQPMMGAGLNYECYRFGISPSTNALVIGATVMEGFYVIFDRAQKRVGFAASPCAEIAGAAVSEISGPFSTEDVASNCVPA
UniProt Q07440, whole entry P104K/C113S, looked up: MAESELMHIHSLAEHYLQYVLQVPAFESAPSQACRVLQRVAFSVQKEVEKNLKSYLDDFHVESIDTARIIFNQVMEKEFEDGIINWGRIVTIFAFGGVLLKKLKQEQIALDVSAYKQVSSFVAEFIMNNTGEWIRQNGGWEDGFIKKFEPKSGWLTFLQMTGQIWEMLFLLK
UniProt Q04609, whole entry: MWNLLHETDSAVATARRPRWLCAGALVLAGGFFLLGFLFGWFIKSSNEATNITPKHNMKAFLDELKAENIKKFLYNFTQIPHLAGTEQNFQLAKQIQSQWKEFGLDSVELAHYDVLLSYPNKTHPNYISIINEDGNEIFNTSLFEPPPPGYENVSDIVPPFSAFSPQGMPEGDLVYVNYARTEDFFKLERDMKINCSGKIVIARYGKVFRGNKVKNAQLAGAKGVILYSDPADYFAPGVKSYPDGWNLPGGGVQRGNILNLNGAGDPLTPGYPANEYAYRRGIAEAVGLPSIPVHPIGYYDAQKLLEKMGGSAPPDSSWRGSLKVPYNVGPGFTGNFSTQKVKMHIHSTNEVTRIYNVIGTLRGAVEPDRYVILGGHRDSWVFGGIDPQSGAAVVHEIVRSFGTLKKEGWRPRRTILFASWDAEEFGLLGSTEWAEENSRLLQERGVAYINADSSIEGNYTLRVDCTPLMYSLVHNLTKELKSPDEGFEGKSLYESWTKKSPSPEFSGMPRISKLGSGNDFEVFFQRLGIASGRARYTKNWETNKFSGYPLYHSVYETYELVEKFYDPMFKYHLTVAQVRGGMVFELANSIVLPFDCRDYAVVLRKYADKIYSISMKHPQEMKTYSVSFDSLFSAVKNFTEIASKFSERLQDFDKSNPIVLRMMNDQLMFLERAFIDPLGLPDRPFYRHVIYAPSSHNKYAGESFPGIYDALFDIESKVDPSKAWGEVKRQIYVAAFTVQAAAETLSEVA
UniProt P42264, 32-919 limits assumed: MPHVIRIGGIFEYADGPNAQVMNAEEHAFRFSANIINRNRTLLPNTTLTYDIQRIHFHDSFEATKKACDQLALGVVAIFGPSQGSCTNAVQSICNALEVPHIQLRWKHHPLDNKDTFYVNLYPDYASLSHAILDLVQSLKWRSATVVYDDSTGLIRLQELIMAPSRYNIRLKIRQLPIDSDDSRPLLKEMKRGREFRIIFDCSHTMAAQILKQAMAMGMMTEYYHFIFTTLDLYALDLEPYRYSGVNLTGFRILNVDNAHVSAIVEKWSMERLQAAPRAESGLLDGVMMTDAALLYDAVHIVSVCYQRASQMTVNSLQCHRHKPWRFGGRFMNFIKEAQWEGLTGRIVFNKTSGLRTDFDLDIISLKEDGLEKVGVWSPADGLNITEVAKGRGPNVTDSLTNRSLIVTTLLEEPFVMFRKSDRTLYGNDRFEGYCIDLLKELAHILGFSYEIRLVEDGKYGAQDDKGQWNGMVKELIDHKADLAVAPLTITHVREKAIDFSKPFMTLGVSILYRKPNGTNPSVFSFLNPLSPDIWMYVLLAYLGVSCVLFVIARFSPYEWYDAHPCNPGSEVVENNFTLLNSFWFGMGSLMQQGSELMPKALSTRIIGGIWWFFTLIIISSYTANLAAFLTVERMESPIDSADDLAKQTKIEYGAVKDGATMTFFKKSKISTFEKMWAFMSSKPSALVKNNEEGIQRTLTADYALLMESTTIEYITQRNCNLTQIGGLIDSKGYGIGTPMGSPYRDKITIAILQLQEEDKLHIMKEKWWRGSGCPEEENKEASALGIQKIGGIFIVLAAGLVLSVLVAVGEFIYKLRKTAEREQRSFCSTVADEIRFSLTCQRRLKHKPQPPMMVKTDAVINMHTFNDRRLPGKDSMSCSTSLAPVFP
UniProt Q16539, whole entry: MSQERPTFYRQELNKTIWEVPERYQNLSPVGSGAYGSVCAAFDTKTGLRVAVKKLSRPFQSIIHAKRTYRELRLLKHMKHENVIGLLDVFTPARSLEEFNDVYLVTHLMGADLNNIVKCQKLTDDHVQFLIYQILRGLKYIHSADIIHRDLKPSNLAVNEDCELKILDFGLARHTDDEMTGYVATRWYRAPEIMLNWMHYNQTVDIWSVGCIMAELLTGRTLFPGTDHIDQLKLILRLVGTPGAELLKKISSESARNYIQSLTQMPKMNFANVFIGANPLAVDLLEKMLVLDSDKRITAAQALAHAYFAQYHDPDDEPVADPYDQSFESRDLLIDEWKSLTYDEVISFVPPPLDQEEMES
UniProt P17655, whole entry: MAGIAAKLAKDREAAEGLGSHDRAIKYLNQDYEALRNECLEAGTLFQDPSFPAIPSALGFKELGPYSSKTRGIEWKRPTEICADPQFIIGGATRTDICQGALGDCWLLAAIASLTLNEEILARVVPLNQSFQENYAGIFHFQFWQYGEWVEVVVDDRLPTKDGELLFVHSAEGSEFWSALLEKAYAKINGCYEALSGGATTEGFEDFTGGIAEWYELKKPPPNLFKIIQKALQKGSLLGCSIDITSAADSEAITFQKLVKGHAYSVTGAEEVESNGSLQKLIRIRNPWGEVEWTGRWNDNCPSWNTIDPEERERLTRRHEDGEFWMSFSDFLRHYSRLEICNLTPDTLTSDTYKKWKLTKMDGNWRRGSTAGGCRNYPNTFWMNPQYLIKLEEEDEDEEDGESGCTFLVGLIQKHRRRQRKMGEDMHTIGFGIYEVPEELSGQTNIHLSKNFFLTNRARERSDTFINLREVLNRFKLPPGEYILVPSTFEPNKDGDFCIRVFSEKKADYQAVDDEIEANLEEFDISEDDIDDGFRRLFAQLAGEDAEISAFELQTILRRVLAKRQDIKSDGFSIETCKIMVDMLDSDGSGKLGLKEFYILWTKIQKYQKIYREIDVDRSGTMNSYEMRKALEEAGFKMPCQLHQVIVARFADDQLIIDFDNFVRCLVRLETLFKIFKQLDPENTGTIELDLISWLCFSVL
UniProt Q05655, whole entry: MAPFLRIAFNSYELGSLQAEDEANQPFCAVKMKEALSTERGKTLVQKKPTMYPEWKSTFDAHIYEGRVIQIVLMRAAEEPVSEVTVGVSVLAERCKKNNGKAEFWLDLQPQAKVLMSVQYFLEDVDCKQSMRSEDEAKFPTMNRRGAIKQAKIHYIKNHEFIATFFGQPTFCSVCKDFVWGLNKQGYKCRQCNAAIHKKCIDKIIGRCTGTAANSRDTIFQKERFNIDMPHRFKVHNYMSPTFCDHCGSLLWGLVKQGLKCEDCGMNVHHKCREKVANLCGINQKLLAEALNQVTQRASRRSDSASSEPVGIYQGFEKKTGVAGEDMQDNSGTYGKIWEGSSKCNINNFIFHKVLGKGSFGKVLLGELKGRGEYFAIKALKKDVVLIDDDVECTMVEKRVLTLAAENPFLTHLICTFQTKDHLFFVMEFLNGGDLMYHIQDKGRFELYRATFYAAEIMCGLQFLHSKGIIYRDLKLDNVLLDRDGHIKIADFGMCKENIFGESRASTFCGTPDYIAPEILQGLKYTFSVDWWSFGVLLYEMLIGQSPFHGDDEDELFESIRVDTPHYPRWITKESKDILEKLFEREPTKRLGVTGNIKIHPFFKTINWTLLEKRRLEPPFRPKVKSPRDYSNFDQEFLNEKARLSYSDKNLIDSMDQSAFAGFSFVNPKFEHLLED

The Ki of `CCOC(=O)c1[nH]c2cc(Cl)ccc2c1C(C(=O)NCc1ccccc1)N(CC(C)C)C(C)=O` (stereo not shown) is reported as 4000 nM (E3 ubiquitin-protein ligase Mdm2 (MDM2, Homo sapiens, UniProt Q00987); binding, fluorescence polarization).
For `COc1ccc(N2CC(=O)C(c3nc(C)cs3)=C2N)c(OC)c1`, the Ki was 446 ± 70 nM (ancestral FSP1; coenzyme Q1 reduction, competitive inhibitor, NADH oxidation; pH 7.2, together with: NADH, coenzyme Q1).
For `CCOC(=O)NC(=O)/C(C#N)=C/c1ccc(Br)c([N+](=O)[O-])c1`, the Ki was 11000 ± 1200 nM (PRKCA-binding protein, PDZ domain (Pick1, Rattus norvegicus, UniProt Q9EP80); binding, fluorescence polarization; together with: labelled hDAT C-terminal peptide).
For `FC(F)(F)c1ccc2c(c1)CC/C2=N\OCCCN1CCCCC1`, the Ki was 30.7 ± 2.23 nM (Sigma non-opioid intracellular receptor 1 (Sigmar1, Rattus norvegicus, UniProt Q9R0C9); radioligand binding; rat).
`CCC[C@H](O)[C@H](NC[C@@H]1Cc2cccc(c2)CCCCc2cc(cc(N(CCC)S(C)(=O)=O)c2)C(=O)N1)C(=O)NCC(C)C` gave a Ki of 99 ± 29 nM (Beta-secretase 2 (BACE2, Homo sapiens, UniProt Q9Y5Z0, E331A); enzyme activity, inhibitor, fluorogenic peptide substrate; catalytic domain).
`COc1ccccc1N=Nc1c(O)ccc2cc(S(=O)(=O)O)ccc12` has a Ki of greater than 20300 nM (Bcl-2-related protein A1 (Mus musculus, UniProt Q07440, C113S/P104K); binding, inhibitor, fluorescence polarization; together with: FITC-labelled Noxa peptide).
`C#CCCCCOC(=O)[C@]1(C)C=C(C(=O)OC(C)(C)C)C(=O)CC1` gave a Ki of 1600 ± 400 nM (MAPK8; D-peptide displacement, fluorescence polarization).
With `CC[N+]1=C(C=CC=CC=C2N(CCCCCC(=O)NCCCCC(NC(=O)CCCCCCC(=O)NCCCC[C@H](NC(=O)N[C@@H](CCC(=O)O)C(=O)O)C(=O)O)C(=O)O)c3ccc4c(S(=O)(=O)O)cc(S(=O)(=O)O)cc4c3C2(C)C)C(C)(C)c2c1ccc1c(S(=O)(=O)O)cc(S(=O)(=O)[O-])cc21` (stereo partly shown) the Ki was 0.05 ± 0.002 nM (Glutamate carboxypeptidase 2 (FOLH1, Homo sapiens, UniProt Q04609); enzyme activity, inhibitor; compound in water, together with: [3H]NAAG 30 nM).
`C=CCC1(C(=O)OC)C=C(C(=O)OC(C)(C)C)C(=O)CC1` (stereo not shown) gave a Ki of 2900 ± 700 nM (MAPK8; docking peptide binding, competitive inhibitor, fluorescence polarization; together with: labelled JIP1 peptide).
The Ki of `Cc1c(N)cccc1C(=O)N1C[C@H](O)C[C@H]1C(=O)NCc1ccc(-c2cnco2)cc1` is reported as 10400 nM (von Hippel-Lindau disease tumor suppressor, with elongin B, C (VHL, Homo sapiens, UniProt P40337); inhibitor, fluorescence polarization; VHL-elonginB-elonginC complex; 1% DMSO, together with: FAM-DEALA-Hyp-YIPD peptide).
`O=C(O)c1cc(C(=O)N[C@@H](Cc2ccc(O)cc2)C(=O)O)cc([C@H]2CCN[C@@H]2C(=O)O)c1` has a Ki of 5690 ± 900 nM (Glutamate receptor ionotropic, kainate 3 (Rattus norvegicus, UniProt P42264); binding, radioligand binding; Sf9 membranes; homomeric receptor, together with: [3H]kainate).
For `COC(=O)C1(C)C=C(C(=O)Nc2cccc3cccnc23)C(=O)CC1` (stereo not shown), the Ki was 38900 ± 6200 nM (Mitogen-activated protein kinase 14 (MAPK14, Homo sapiens, UniProt Q16539); D-peptide displacement, fluorescence polarization).
`CCC(NC(=O)C(CC(C)C)NC(=O)Cc1ccncc1)C(=O)C(=O)NCc1cc(OC)cc(OC)c1` (stereo not shown) gave a Ki of 43 ± 11 nM (Calpain-2 catalytic subunit (Homo sapiens, UniProt P17655); enzyme activity, inhibitor, Suc-Leu-Tyr-AMC hydrolysis; recombinant enzyme).
`O=C(O)CC[C@H](NC(=O)c1cc(C(=O)O)cc([C@H]2CCN[C@@H]2C(=O)O)c1)C(=O)O` has a Ki of 830 nM (NMDA receptor (rat); binding, radioligand binding; rat cortical synaptosomes; together with: [3H]CGP39653).
`CCCCCCCCC(CCCC=CCCCC(CCCCCCCC)C(=O)OCC1(CO)CC(=C(C)C)C(=O)O1)C(=O)OCC1(CO)CC(=C(C)C)C(=O)O1` (racemic) has a Ki of 3.11 ± 0.22 nM (Protein kinase C delta type (PRKCD, Homo sapiens, UniProt Q05655); binding, [3H]PDBu competition; together with: phosphatidylserine 100 µg/mL).
The Ki of `CCCCCCCCCCCCCC[C@@H](O)[C@@H](O)[C@H](CO[C@H]1O[C@H](CO)[C@H](O)[C@H](O)[C@H]1O)NC(=O)CCCCCCCCCCc1ccc(F)cc1` is reported as 270 ± 80 nM (Cd1d1, dimeric Ig fusion (Mus musculus, UniProt P11609); binding, competitive microarray binding; together with: printed glycolipid 100 µM).

Some of these lines once more:
`CCCCCCCCC(CCCC=CCCCC(CCCCCCCC)C(=O)OCC1(CO)CC(=C(C)C)C(=O)O1)C(=O)OCC1(CO)CC(=C(C)C)C(=O)O1` (racemic) has a Ki of 3.11 ± 0.22 nM (Protein kinase C delta type (PRKCD, Homo sapiens, UniProt Q05655); binding, [3H]PDBu competition; together with: phosphatidylserine 100 µg/mL).
